Assay results pooled from the literature.
Numbered parts are unrelated; each lists some results of a single study. Substitutions count along the parent as printed.

Sample 1
Target: Interferon regulatory factor 5, full length, phosphomimetic (IRF5, Homo sapiens, UniProt Q13568-2, residues 1-514, K96S/S451D/S453D/S456D/S462D)
Technique: protein-binding microarray
Form: double-stranded DNA, one strand shown
Medium: in vitro
Concentration: 250 nM
Notes: 60-bp whole probe
Added: salmon DNA 0.4 mg/ml
Relative to: random background probes
Reading: higher = stronger binding
Constant ends, left off below: GCCTAGCAC … GTCTTGATTCGCTTGACGCTGCTG
The log fluorescence of `GATATTATATCTGTGTTATTGTGCTAG` is reported as 1.41 z-score.
`TTGCTTTCCTTCTTGAACTCGTGCTAG` gave a log fluorescence of 1.98 z-score.
`GACGACCTCAGACTGGAGACGTGCTAG` gave a log fluorescence of -0.259 z-score.
With `GACGATATCAGACTGGAGAGGTGCTAG` the log fluorescence was 0.355 z-score.
`TTAGACCTGAGTATCGATTAGTGCTAG` has a log fluorescence of 6.11 z-score.
With `TCAGTGGTCTGTTTCTGACTGTGCTAG` the log fluorescence was 0.556 z-score.
The log fluorescence of `GACGGTATAGGTATCGGGACGTGCTAG` is reported as 0.524 z-score.
With `TCACTTCTCGAGTGCCGGACTGTGCTA` the log fluorescence was -0.131 z-score.
The log fluorescence of `GTCGGTTTCGGTCTCGGGACGTGCTAG` is reported as 10.1 z-score.
With `TTAGGACTGGGGTATGGGTTAGTGCTA` the log fluorescence was -0.537 z-score.
`ATATATTTATGTATACACACGTGCTAG` has a log fluorescence of 0.713 z-score.
`GGGTGGGAGCCGAAGACGCCGTGCTAG` gave a log fluorescence of -1.26 z-score.
`GACGGTTTCCTTTTCCTAACGTGCTAG` has a log fluorescence of 1.36 z-score.
For `TTAGGTCTCCTACTGATTTAGTGCTAG`, the log fluorescence was -0.252 z-score.
With `TCAGGACTGCTTTTCCTTTAGTGCTAG` the log fluorescence was 0.282 z-score.
With `TTAGATCTCAGTTTCGAGTAGTGCTAG` the log fluorescence was 6.04 z-score.
With `TCAAATCTCTCATGTTACACTGTGCTA` the log fluorescence was 0.716 z-score.
For `TTAAATCTCAGTATCGATTAGTGCTAG`, the log fluorescence was 7 z-score.
`CCAAGGTTCAAGTTTACCCATGTGCTA` has a log fluorescence of -0.365 z-score.

Sample 2
Target: ABI1, truncated, D143A, DHFR fusion (Arabidopsis thaliana)
Technique: DHFR PCA, deep sequencing
Medium: yeast
Notes: methotrexate growth selection, single substitutions
Added: (+)-ABA 0.0091 µM
Relative to: wild-type fitted maximum
Reading: higher = stronger binding
Starting sequence: PYL1, truncated, DHFR fusion (Arabidopsis thaliana); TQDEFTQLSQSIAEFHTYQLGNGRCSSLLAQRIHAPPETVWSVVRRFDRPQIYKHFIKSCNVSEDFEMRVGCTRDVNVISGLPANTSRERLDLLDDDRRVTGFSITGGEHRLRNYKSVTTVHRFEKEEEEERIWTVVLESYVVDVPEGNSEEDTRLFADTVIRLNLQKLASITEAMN; partner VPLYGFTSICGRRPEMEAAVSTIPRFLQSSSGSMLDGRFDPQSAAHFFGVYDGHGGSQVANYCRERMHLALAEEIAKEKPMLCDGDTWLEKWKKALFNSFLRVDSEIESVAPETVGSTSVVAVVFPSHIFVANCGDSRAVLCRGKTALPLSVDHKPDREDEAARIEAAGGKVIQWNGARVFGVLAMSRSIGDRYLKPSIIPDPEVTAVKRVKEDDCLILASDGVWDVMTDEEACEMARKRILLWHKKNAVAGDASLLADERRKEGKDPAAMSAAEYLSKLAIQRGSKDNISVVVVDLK
For `R45G`, “relative binding score” read -0.348%.
`E109T`: “relative binding score” 7.2%.
`N61L`: “relative binding score” 23.6%.
`G148S`: “relative binding score” 1.54%.
Under “relative binding score”, `R90G` is recorded as -2.5%.
For `K58C`, “relative binding score” read 3.02%.
For `F5R`, “relative binding score” read 7.6%.
`Q31E` — result for “relative binding score”: -2.35%.
Under “relative binding score”, `T17H` is recorded as -3.6%.
`V161D` — result for “relative binding score”: 2.18%.
`Y18W`: “relative binding score” 19.8%.
`R113S`: “relative binding score” 10.6%.
`S26L`: “relative binding score” 4.91%.
Under “relative binding score”, `D153W` is recorded as -1.97%.
For `E129K`, “relative binding score” read 16.1%.

Sample 3
Target: Max dimerization protein 1, bHLH-zipper, MAX partner unstated (MXD1, Homo sapiens, UniProt Q05195, residues 56-136)
Technique: protein-binding microarray
Form: double-stranded DNA, one strand shown
Medium: in vitro
Concentration: not given
Notes: k-mer, scored over probes, only values ≥0.25
Reading: higher = stronger binding
Target sequence (chain): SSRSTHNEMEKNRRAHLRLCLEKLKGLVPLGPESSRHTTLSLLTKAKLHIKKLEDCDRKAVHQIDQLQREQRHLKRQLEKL
The E-score of `TAGGGGCA` is reported as 0.258.
`GGGTTTTA` has an E-score of 0.267.
The E-score of `ACCACGAT` is reported as 0.334.
For `CGACATGC`, the E-score was 0.409.
For `AGTGGGGG`, the E-score was 0.26.
`ATGGCCCC` has an E-score of 0.252.
With `CGTCATGC` the E-score was 0.274.
The E-score of `ACGTGACT` is reported as 0.326.
For `ACGTGGAA`, the E-score was 0.376.
With `ACAACGCG` the E-score was 0.267.
The E-score of `ACACGCGC` is reported as 0.395.
With `AGAAGGGG` the E-score was 0.276.
`AGATGGGG` gave an E-score of 0.287.
The E-score of `ACACGGGA` is reported as 0.283.
For `CATCATGC`, the E-score was 0.257.
`AGCGTGGC` has an E-score of 0.381.
The E-score of `GGGGCGCA` is reported as 0.29.
With `ATGTGACC` the E-score was 0.253.
The E-score of `ACATGCTG` is reported as 0.422.
`TCCACGCA` has an E-score of 0.321.
With `CTCCCCCA` the E-score was 0.276.
With `AGCACGCT` the E-score was 0.376.

Sample 4
Target: human cyclin A2
Technique: competitive growth deep sequencing
Form: peptide
Organism: Saccharomyces cerevisiae
Strain: cyclin A2-Cln2 fusion strain
Notes: peptide tiling library
Reading: direction not given
With `PAKRRLELGE` the enrichment score was 2.56.
For `GLPDFVFQQQPVESEA`, the enrichment score was 1.33.
The enrichment score of `VLVRTSACRSLFGPVD` is reported as 1.61.
`TARRIFQEPTEPKTKA` gave an enrichment score of -0.774.
`DGCSPIKNWSPMRL` gave an enrichment score of 0.128.
The enrichment score of `PKNAKRNLSSEFAN` is reported as 2.24.
`SMTDFYHSKRRLIFSK` has an enrichment score of 0.625.
`DTERAHSTLDEDLERW` gave an enrichment score of 0.26.
`FQDSGYNELKSCSFDN` has an enrichment score of 0.512.
The enrichment score of `KRNLLNEFDRII` is reported as 3.3.
`KPHVSDEEEEEPPFYH` has an enrichment score of 1.05.
`SAVPLILPQAPSGPSY` gave an enrichment score of 1.6.
The enrichment score of `IVLICAKRSLCAAFSV` is reported as -0.563.
The enrichment score of `SSEVARHLLFQSHM` is reported as -0.9.
For `KPKPVKPVTFSTGIKM`, the enrichment score was 1.32.
`PARRRLRLSVDEVSSP` has an enrichment score of 1.1.

Repeated from above (sample 2):
Under “relative binding score”, `D153W` is recorded as -1.97%.
For `R45G`, “relative binding score” read -0.348%.
`V161D` — result for “relative binding score”: 2.18%.
`G148S`: “relative binding score” 1.54%.
`Q31E` — result for “relative binding score”: -2.35%.
For `F5R`, “relative binding score” read 7.6%.
`Y18W`: “relative binding score” 19.8%.
`S26L`: “relative binding score” 4.91%.
For `E129K`, “relative binding score” read 16.1%.
For `K58C`, “relative binding score” read 3.02%.
